# Measurements of several laboratories.
# A part holds a random share of what one study measured. Substitutions count along the parent as printed.

# Sample 1
# Target: CCNE1, cyclin fold, Cln2 fusion (human)
# Technique: yeast growth competition, sequencing
# Matrix: yeast
# Notes: weak parent motif
# Relative to: not given
# Direction: higher = stronger binding
# Starting sequence: CDC6 docking peptide (human); TLKGRRLVFDNQL
Substitution,normalised enrichment score
L2M,0.459
L7P,0.00611
K3G,0.0593
R6I,0.461
G4H,0.292
Q12A,0.0212
D10Y,1.28
G4C,1.05

# Sample 2
# Host: human
# Matrix: microsomes or S9
# Concentration: 2 µM
# Time: 0.5 h
Structure (SMILES),remaining compound
CC(C)N(C1=CC(=O)OC12CCCCC2)C(C)C,40.1%
COc1nc(OC)nc(Oc2ccc(NC(=O)c3c[nH]c4ccccc34)cc2)n1,> 99%
COc1ccccc1Nc1nc(N)nc(CN(C)Cc2ccco2)n1,30.1%
COc1cc(OC)cc(-n2c3c(c4nc(OC)ccc42)C(C)CCC3)c1 (centres unmarked),69.1%
CCc1nc(-c2cccc(-c3noc(-c4sc(C)nc4C)n3)c2)cs1,83.1%

# Sample 3
# Molecule: H2BC12L (Homo sapiens, UniProt P57053)
# Technique: cross-linking MS
# Notes: hits only
partner,interaction screen
"H2BC5 (Homo sapiens, UniProt P58876)",cross-linked
"H2AC6 (Homo sapiens, UniProt Q93077)",cross-linked
"H2BC18 (Homo sapiens, UniProt Q5QNW6)",cross-linked

# Single results of other studies
SMILES,target,test,conditions,endpoint,value
Cn1cncc1[C@](O)(COc1ccc(C#N)cc1-c1ccc(OC(F)(F)F)cc1)c1ccc(C#N)cc1,"5-hydroxytryptamine receptor 1A (HTR1A, Homo sapiens, UniProt P08908)","ligand displacement, radioligand",10 µM,inhibition,10.8%

# Repeated from above (sample 1):
Substitution,normalised enrichment score
R6I,0.461
G4H,0.292
